Published values gathered from unrelated publications.
A part holds a random share of what one study measured. Positions count from the first letter of the parent shown.

Series 1 — method: RNA Bind-n-Seq; molecule type: RNA; medium: in vitro; tested at: 365 nM; reference: no-protein control; direction: higher = stronger binding
Target: RNA binding protein fox-1 homolog 2, RRM domain, GST-SBP tag (RBFOX2, Homo sapiens, UniProt O43251-10, residues 100-194)
Notes: natural RNA segment, single round, ends assumed
Construct (chain): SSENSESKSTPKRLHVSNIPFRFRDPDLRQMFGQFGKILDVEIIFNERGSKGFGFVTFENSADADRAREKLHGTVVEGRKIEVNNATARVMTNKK
For `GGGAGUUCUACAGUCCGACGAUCAGUGCUCAAAAACAUCUGAUGACUGACUAAAGAUGCUAGGCGUGACACCGUUCCCUCCAAAAGCAGACCUCGGAAUCACUGCCAAAUAAGUAACUAGACGUUUACAGGCCUGGAAUUCUCGGGUGCCAA`, “RBNS enrichment (R)” read 0.188.
`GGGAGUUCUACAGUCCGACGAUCUCCCCUCUUAACCAUGACCAGCGGAAGCAGGUGUGUGUGACCAGGGCACGGGGUGAAGAAUCUGCCCAUCAAGGUGGGUGGGCCUCAUGUCGCUGCCCCCACCAGAGUCCUGGAAUUCUCGGGUGCCAA` — result for “RBNS enrichment (R)”: 0.149.
For `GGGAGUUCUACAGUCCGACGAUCGCAGAUACUGUGAGGCACAGAUUAUAUUGUCAAGCUACUGUUGCUAUGGUUAUAGACACCCACUUCAGACAUUACCAAGAGUCGAUCACUGACUUAAAAAUUUUAAUUUCUGGAAUUCUCGGGUGCCAA`, “RBNS enrichment (R)” read 0.583.
`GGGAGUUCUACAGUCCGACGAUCUACACCUGUGUGCUUUUCUAGAAAAAGCUGCUAAUGGCUGCAACACUAAUCAUGAACACGUUUUUGCCAGUUUCAAUCAAGUCAGAGGCAUUUAAUAAAAUUAUCUACACUGGAAUUCUCGGGUGCCAA` — result for “RBNS enrichment (R)”: 0.466.
`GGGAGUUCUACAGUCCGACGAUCGAGGGUGAUGGGUAAAGCAGUAGAGGGCCCUCAACCCACACACUGGCUGAAACUGCCACCAACUGCCACGAUGAACCCAACUGCUGUUUAUGCCCCCAUUUUCCUUUUUUUGGAAUUCUCGGGUGCCAA`: “RBNS enrichment (R)” 0.713.
`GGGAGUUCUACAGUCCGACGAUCUCUGGGGAAGGAAAGGAGACUAGAGCAGCUGGUGUGCUCACCCCUCCCUAGUCACCUCCAUUAACCACAGACUAUGUAGCGCUGGCCCUAGCCUCUGGCAGAGCCUGUUCUGGAAUUCUCGGGUGCCAA`: “RBNS enrichment (R)” 0.227.
`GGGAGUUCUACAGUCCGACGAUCUUCAUUCUCGUGAGUCAUUUAAAUGUGUACAAUGUACACACUGGUACUUAGAGUUUCUGUUUGAUUCUUUUUUAAUAAACUACUCUUUGAUUUAAUUGUUUGGUGUAAGCUGGAAUUCUCGGGUGCCAA` — result for “RBNS enrichment (R)”: 0.49.
`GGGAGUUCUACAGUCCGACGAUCGAAACUUGCACAGCUAGCUAUGCAUCUACAUUUUGGUUUGGGGUUAGUUAUGAAAUGUUCUUAAUAUGACGUGUUCAAUAACUUCACAUAAACUUCCUGUUCUCCAAAACUGGAAUUCUCGGGUGCCAA`: “RBNS enrichment (R)” 0.292.

Series 2 — target: CCNA1, cyclin fold, Cln2 fusion (human); method: yeast growth competition, sequencing; medium: yeast; notes: weak parent motif; reference: not given; direction: higher = stronger binding
Parent: PKN2 docking peptide (human); VSAVQKLDFSDTM; partner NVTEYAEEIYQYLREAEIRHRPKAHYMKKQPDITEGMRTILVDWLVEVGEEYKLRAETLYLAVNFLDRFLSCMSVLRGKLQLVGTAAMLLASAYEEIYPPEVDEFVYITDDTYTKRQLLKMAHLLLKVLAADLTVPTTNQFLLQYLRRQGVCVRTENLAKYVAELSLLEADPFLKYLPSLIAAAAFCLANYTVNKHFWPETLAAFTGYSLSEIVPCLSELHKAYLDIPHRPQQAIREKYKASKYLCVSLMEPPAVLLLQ
Under “normalised enrichment score”, `S10F` is recorded as -0.174.
For `A3Y`, “normalised enrichment score” read 0.342.
For `F9E`, “normalised enrichment score” read 0.258.
`S2G`: “normalised enrichment score” 0.142.
`A3R` — result for “normalised enrichment score”: 0.162.
`V1R` — result for “normalised enrichment score”: 0.144.
For `D8Q`, “normalised enrichment score” read 0.185.
Under “normalised enrichment score”, `D11W` is recorded as 0.357.

Series 3 — method: universal PBM; molecule type: double-stranded DNA, one strand shown; medium: in vitro; tested at: not given; direction: higher = stronger binding
Target: Sal-like protein 4, full length isoform B (SALL4, Homo sapiens, UniProt Q9UJQ4-2, residues 1-616)
Notes: 8-mer, flanks averaged, mean of replicates
Construct (chain): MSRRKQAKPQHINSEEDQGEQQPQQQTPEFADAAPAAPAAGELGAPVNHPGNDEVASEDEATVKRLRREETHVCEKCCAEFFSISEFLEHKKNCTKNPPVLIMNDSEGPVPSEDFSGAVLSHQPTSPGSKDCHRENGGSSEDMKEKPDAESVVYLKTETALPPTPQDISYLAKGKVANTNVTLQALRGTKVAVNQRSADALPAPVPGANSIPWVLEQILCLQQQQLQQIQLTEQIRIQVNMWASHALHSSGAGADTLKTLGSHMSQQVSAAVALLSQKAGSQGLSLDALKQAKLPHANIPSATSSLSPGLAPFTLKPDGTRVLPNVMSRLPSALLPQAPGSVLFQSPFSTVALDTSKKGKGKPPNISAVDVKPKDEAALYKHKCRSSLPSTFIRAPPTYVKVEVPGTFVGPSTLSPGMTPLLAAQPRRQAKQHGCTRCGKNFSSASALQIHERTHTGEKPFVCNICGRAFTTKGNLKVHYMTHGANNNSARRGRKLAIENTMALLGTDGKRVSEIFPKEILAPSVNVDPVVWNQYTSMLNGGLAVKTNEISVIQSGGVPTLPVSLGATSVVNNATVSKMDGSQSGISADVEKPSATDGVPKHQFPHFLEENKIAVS
For `ACACATTA`, the E-score was 0.214.
The E-score of `AGGACCGA` is reported as -0.111.
For `AAGAAAGC`, the E-score was -0.166.
`CGCTGTCC` gave an E-score of -0.199.
`ACTATCTA` gave an E-score of 0.183.
The E-score of `CGAACACC` is reported as -0.261.
`CATAGCCG` has an E-score of -0.0538.
With `ATGATAAC` the E-score was 0.339.

Single results of other studies
For `PhoQ, residues 284 288 289 292 302 303 TASMAF`, the fold induction was 14.7 (PhoP, residues 12 14 15 18 19 LHTVM (Escherichia coli, UniProt P23836); Sort-seq, refers to: YFP reporter; E. coli; PhoQ-PhoP variant library, with: 10 µM Mg2+; reference: high Mg2+ state, higher = stronger signaling).

For quick reference, copied from above (series 2):
For `D8Q`, “normalised enrichment score” read 0.185.
Under “normalised enrichment score”, `D11W` is recorded as 0.357.
